Measurements from different studies.
Every numbered part comes from another study and shows a few of its results, in no order. Changes are numbered by the printed parent chain.

Study 1 — target: CCNB1, cyclin fold, Cln2 fusion (human); technique: yeast growth competition, sequencing; matrix: yeast; setting: strong parent motif; reference: not given; direction: higher = stronger binding
Starting sequence: CUX1 docking peptide (human); SRIRRELFIEEIQ
Substitution | normalised enrichment score
R5A | 0.379
F8A | 0.713
R5K | 1.11
I9A | 0.85
S1A | 1.61
R5A L7A | 0.205
R2A | 1.4
R5K F8L | 0.408
R4A | 1.34
L7A | -0.0152

Study 2 — technique: universal PBM; molecule type: double-stranded DNA, one strand shown; matrix: in vitro; concentration: 600 nM; direction: higher = stronger binding
Target: Sal-like protein 4, full length isoform A (SALL4, Homo sapiens, UniProt Q9UJQ4, residues 1-1053)
Chain of UniProt Q9UJQ4 (whole entry, looked up): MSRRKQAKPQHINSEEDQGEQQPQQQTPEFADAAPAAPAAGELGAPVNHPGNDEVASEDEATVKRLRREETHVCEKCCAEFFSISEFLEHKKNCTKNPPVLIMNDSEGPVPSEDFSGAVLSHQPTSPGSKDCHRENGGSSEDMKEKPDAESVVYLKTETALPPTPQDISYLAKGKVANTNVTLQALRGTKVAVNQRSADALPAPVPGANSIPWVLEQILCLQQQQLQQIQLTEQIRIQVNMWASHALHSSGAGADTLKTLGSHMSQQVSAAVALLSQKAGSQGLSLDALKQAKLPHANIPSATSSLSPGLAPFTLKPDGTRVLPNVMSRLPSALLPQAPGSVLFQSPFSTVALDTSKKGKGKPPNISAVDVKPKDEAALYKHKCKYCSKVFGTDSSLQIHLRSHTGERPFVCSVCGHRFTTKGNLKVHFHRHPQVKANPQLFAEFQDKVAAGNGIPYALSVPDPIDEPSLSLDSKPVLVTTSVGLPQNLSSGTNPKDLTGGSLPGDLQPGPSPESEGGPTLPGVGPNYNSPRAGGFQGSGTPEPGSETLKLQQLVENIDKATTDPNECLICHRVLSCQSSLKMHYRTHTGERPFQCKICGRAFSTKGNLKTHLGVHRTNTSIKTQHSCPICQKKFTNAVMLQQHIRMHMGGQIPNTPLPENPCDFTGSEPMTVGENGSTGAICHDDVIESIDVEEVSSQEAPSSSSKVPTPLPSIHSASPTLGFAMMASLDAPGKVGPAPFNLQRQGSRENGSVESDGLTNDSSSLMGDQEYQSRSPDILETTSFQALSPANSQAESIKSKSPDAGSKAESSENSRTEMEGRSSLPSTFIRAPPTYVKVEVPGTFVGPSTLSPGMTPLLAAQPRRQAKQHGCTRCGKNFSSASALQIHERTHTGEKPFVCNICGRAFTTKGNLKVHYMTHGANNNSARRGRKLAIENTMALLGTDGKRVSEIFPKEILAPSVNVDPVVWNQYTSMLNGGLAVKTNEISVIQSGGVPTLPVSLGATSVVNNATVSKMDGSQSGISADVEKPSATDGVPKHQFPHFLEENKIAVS
Setting: 8-mer, flanks averaged, mean of replicates
Sequence | E-score
CAGCAGCG | -0.261
CGAGACGC | -0.139
TGAGGGAA | 0.0354
CTTACGTC | -0.195
AATTTAGG | 0.203
AACTTGAT | 0.292
CCGTAAGA | -0.0987
AACGGCAG | -0.266
AATCCAAT | 0.151
CTCTCGCA | -0.112
ACGAGGAA | 0.0264
AGTAAGGC | -0.111
TGCGCGCA | -0.0273
TCGATAGA | 0.134
AGCCACGA | -0.188
CACAGGCG | -0.192
CCGCATCC | -0.315

Study 3 — technique: aptamer microarray, sandwich; molecule type: DNA with 2'F-ANA; matrix: in vitro; concentration: 200 nM; with: Cy3 exosite-II aptamer, 400 nM; direction: higher = stronger binding; sequence: GGTTGGTGTGGTTGG
Target: Prothrombin, mature alpha-thrombin (F2, Homo sapiens, UniProt P00734)
Setting: whole 15-mer aptamer, many near background
Modification | mean fluorescence intensity [a.u.]
2'F-ANA at 1 5 9 10 12 15 | 47.8
2'F-ANA at 1 2 3 5 9 12 13 14 15 | 46.2
2'F-ANA at 1 2 4 5 8 12 | 121
2'F-ANA at 1 2 6 8 9 10 11 12 13 15 | 87.3
2'F-ANA at 2 4 9 12 13 | 423
2'F-ANA at 1 2 3 5 6 7 9 12 14 15 | 49.4
2'F-ANA at 1 5 7 9 10 11 13 14 | 46.1
2'F-ANA at 3 4 6 10 12 13 15 | 247
2'F-ANA at 1 3 4 5 10 11 12 13 | 47.7
2'F-ANA at 2 3 4 6 7 9 | 591
2'F-ANA at 7 12 13 | 821
2'F-ANA at 1 5 7 8 10 12 14 | 44.6
2'F-ANA at 1 2 3 6 7 8 9 10 12 13 14 | 55.8
2'F-ANA at 1 2 9 10 12 14 15 | 48.2
2'F-ANA at 1 5 6 7 8 13 14 15 | 55.3
2'F-ANA at 1 2 3 4 5 6 10 11 13 14 | 47.7
2'F-ANA at 1 4 7 8 10 14 | 53.5
2'F-ANA at 1 2 3 5 6 7 15 | 61.4
2'F-ANA at 1 2 4 6 7 8 9 12 | 320
2'F-ANA at 1 9 10 12 14 15 | 47.3
2'F-ANA at 1 2 3 4 5 8 9 10 12 | 49.6
2'F-ANA at 1 2 3 4 6 9 14 | 74.4
2'F-ANA at 1 5 6 8 9 10 11 14 15 | 65.8
2'F-ANA at 1 7 9 13 | 132

Study 4 — technique: competition protein-binding microarray; molecule type: double-stranded DNA, one strand shown; matrix: in vitro; concentration: 2 µM; with: Pho4 competitor, 0.05 µM; direction: higher = stronger binding; constant ends, left off below: … GTCTTGATTCGCTTGACGCTGCTG
Target: Centromere-binding protein 1, full length, His-tagged (CBF1, Saccharomyces cerevisiae, UniProt P17106, residues 1-351)
Chain of UniProt P17106 (whole entry, looked up): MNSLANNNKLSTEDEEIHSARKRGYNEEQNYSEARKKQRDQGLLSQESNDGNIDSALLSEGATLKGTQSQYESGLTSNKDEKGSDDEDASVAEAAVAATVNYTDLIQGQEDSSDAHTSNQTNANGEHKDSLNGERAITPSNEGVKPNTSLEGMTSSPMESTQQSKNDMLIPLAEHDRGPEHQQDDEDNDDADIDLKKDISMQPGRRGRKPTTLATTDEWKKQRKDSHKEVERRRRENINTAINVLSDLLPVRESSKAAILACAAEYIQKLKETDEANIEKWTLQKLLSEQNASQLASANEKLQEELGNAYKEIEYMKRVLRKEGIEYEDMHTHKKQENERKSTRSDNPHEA
Setting: whole 60-bp probe, lowest competitor level
Sequence | fluorescence intensity
TGCGCAACAACTTGGTAAGTGGGTGTATGTCTAGAA | 65.6 a.u.
TAGGACATTGTACGACGCGTGTCGGACCATGGAAAA | 70 a.u.
GACGCTGAGCTCCATCACGGGCTACGCCAGCGCAGC | 77 a.u.
CCGACGTCGGAGAGGCAGGTGATGTTCGGCTCGGCC | 69.2 a.u.
CATACCCAACCTTGCGGCGTGGGTGAAGATATTTGT | 65 a.u.
TGGTATAGCAATTTGCACGTTCACTGCCATTGACTT | 94 a.u.
CTTTCCGTTTGCGGACTCGTGCAAAAGCTTACCTTC | 105 a.u.
CACAGACAGGATAGCTGCGTGGGACAATATTGTTGA | 73.2 a.u.
CGTTCCAAGCCGAGTCACGTTTGTGGTGTTGTCGTA | 449 a.u.
TCACTCTATAGCTGTCATGCGTGGATTTTTCCAGCT | 93.4 a.u.
CGTCCTAGTGATTGTCACCTTACTTCCATGAGGAAG | 91.9 a.u.
CGGGGTTAAGTTTGTGGCGTGGGTGGCTTGCAGCAG | 56.3 a.u.
GGGATGGTGATGGTATACGTGGTTACGTCTTTTACA | 92.1 a.u.
CTTTCCCGATCTTGGTACGTGGGTGTAGCACATTTG | 76.5 a.u.
AAACAGGGCGGCGTTCCCGTGCGGAAGGTGGTCTGC | 73.2 a.u.
GTTATTAAACTCCGTCACAGTAAGGCATACCCCATT | 63.8 a.u.
TCGTGCGATGTTTTCATCGAATCCTCCAAGCAATGA | 79 a.u.
CTTTCCCGATCTTGTCTCGTGGGTGTAGCACATTTG | 97 a.u.
TTATGGATAGAGTCCCACGCTGATATAAACACCATA | 81.1 a.u.
CTCCCACCAGAACGTCACCTGCTCTCTTAATCAATG | 337 a.u.
TCGAACGAAAAAAGAAACGTGATAGCGATGTAAGTA | 513 a.u.
GTCTTGTCTCATTGGACAGTGGGTGTCCCCACTTCA | 85.9 a.u.
GCAGCAGTGGCCGCACTCGTGGCCGTCGAGTCATCG | 46.1 a.u.
TGAGTTGTCGGGCTCATCGTGCTTTATCAAGTGGTT | 66.9 a.u.
AGTCGTCGTCCGGGACATAGGATCAGGAATCACAAT | 65.6 a.u.

Study 5 — technique: RNA Bind-n-Seq; molecule type: RNA; matrix: in vitro; concentration: 365 nM; reference: no-protein control; direction: higher = stronger binding
Target: RNA binding protein fox-1 homolog 2, RRM domain, GST-SBP tag (RBFOX2, Homo sapiens, UniProt O43251-10, residues 100-194)
Setting: natural RNA segment, single round, ends assumed
Constant ends, left off below: GGGAGUUCUACAGUCCGACGAUC … UGGAAUUCUCGGGUGCCAA
Construct (chain): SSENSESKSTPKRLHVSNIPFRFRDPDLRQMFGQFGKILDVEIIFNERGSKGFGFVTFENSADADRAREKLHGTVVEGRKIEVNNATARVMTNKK
Sequence | RBNS enrichment (R)
GGAGAUGAGAAGCUCUUGAUCCAAUCCCUGUGCAGCAUCAAGAAGCCCAGGAAGCUGGCCCAGGCCUGCUCCUCUGUGUUUCCCCAUGGGCAGCGAUAGAGGCCAAGUAU | 0.241
CUGGUGCCUGGCCUCUGCACUGUCUGGAGCAUGAUCAGAAUCCACGGUGUAUCCUGGCUUUAGGGGAACCAGGUUCAAGCAGGAAAGGGAUGGACACCAAGAGGUCUUCC | 13.4
UCCUUUUGGAGUUUCUUCUCCACAUUAUCUUUGUUCCUGGGGAAUAAAAACUACCAUUGGACCUAGAUUUGGGCUCCUGUACUGUCUUCACCUGCUCUUGUCCACCCUAC | 1.03
UUGAAAAGUUUGAGUGUUACAGGCUCUAAAGUGCAAUGGAGAACAAUUGCUUAGGAGGAGGAAGGGGAAAGUAUACUUAUGUUGGUGUGUAAGCAUGCAUGGAGGCCUCG | 4.1
GACUUCCAGAUGGUCUCCCGAACCGCCUGGCUCUGCCGGCGCCCUCCUCACGUCAGGAGCAAGCAGCCGUGGACCCCUAAGCCGAGCUGGUGGAAGGCCCCUCCCCAUCG | 0.271
AUCUAGCUCCUGUAUAUAUAUUUUAUUGCAUGCACUGUGACCUUGGGGGGAGAACAGAAGGGGGACGACGCCCCCGCACCUCCUGCGAUCUGGCUGGCUUGGAUCUCGUU | 10.1
AAUCAAGCCUGAUUCAAAACAUCCUAGGGUGUUUUAAACACACCAUCUGGUGCCAAAUGAAGAUUUUUAGGAGUGAUUACUAAUUAUCAAGGGCACAGUUGUGGUACUGU | 0.317
GUUUUUACAGACAACAUCGAGUAAUGGCUUGUAAAUGUGAAUUUUGCCAGAGGUGGUUUUUGAACAGGAAAAUCAUAAUUCAUAUCAUUGGAGAAGUAUUUAUUUUCAAA | 0.517
GUGAACAGAGCGAGACGCAGUUAUGUGUGCACCGGCAGAUACUGACACUGAUGGCUGACAGUGUGUGCGUCCUUCACGCCGGUGUGCAACGUACGCAGUGUUUACUCAGU | 1.12
UUGAAAGUAUCUGAUGGAGCUCCUGAUGACCUAAUGUAUCCUUUAGAAAUUUAAAAUAGCAUUAGAGCAAGUUGCUUGUCAUGGCUUGAAGAGCUUAACUUUGUCUUUUG | 0.55
AGCAGUUAUAUUUUAAUGCAUUUCAGUGUUUAUAGUAGAAGUUUAGUGGAUAAAACUUUAAGUCCAAUAACUUGGGGGUCAAAUGCUAAUGUUUUAUUCAAUGUAAAGGA | 0.662
UUGGCAAUUUUUAUGUAGUUUAAGUGGAAUUAAGCAGAGGGAGAUGCUUUUGGGUUUUUAAUAUGCCACUUCUGAGUGAAAACAUCUCGUGGAGUCAUUGUGUUCAGCUC | 0.853

Some of these lines once more (study 4):
Sequence | fluorescence intensity
TCACTCTATAGCTGTCATGCGTGGATTTTTCCAGCT | 93.4 a.u.
CGTCCTAGTGATTGTCACCTTACTTCCATGAGGAAG | 91.9 a.u.
CGGGGTTAAGTTTGTGGCGTGGGTGGCTTGCAGCAG | 56.3 a.u.
GGGATGGTGATGGTATACGTGGTTACGTCTTTTACA | 92.1 a.u.
CTTTCCCGATCTTGGTACGTGGGTGTAGCACATTTG | 76.5 a.u.
AAACAGGGCGGCGTTCCCGTGCGGAAGGTGGTCTGC | 73.2 a.u.
GTTATTAAACTCCGTCACAGTAAGGCATACCCCATT | 63.8 a.u.
TCGTGCGATGTTTTCATCGAATCCTCCAAGCAATGA | 79 a.u.
CTTTCCCGATCTTGTCTCGTGGGTGTAGCACATTTG | 97 a.u.
TTATGGATAGAGTCCCACGCTGATATAAACACCATA | 81.1 a.u.
